# Experimental data gathered from unrelated publications.
# Numbered parts are unrelated; each lists some results of a single study. Positions count from the first letter of the parent shown.

# Study 1 — technique: Sort-seq; refers to: YFP reporter; sample: E. coli; notes: PhoQ-PhoP variant library; together with: 10 µM Mg2+; reference: high Mg2+ state; direction: higher = stronger signaling
# Molecule: PhoQ, residues 284 288 289 292 302 303 GASLAW
target,fold induction
"PhoP, residues 12 14 15 18 19 STHWV (Escherichia coli, UniProt P23836)",5.66
"PhoP, residues 12 14 15 18 19 QYCSL (Escherichia coli, UniProt P23836)",1.14
"PhoP, residues 12 14 15 18 19 SHWTV (Escherichia coli, UniProt P23836)",0.973

# Study 2 — target: CCNE2, cyclin fold, Cln2 fusion (human); technique: yeast growth competition, sequencing; sample: yeast; notes: strong parent motif; reference: not given; direction: higher = stronger binding
# Starting sequence: CDC25A docking peptide (human); PPHRRRLLFACSP; partner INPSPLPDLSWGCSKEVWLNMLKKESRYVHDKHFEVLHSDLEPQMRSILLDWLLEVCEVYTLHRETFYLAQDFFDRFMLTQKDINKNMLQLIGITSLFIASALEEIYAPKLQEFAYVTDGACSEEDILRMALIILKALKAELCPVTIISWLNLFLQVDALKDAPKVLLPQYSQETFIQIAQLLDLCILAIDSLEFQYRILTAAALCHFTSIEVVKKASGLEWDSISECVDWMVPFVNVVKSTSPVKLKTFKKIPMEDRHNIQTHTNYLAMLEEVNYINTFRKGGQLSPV
Substitution,normalised enrichment score
S12Q,1.05
L8W,1.57
P2S,1.2
P2D,0.889
R4I,2.33
R6N,0.874
F9Q,0.441
R6I,0.539

# Study 3 — target: CRIPT, C-terminal peptide; technique: DHFR complementation, deep sequencing; sample: yeast; reference: wild type; direction: higher = weaker binding
# Notes: single substitutions, model-inferred values
# Starting sequence: ERBIN, PDZ domain 1 (human); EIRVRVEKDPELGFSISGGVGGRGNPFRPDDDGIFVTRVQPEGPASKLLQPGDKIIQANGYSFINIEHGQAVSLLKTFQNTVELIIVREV; partner TKNYKQTSV
Substitution,binding free energy change
V90W,-0.0868 kcal/mol
H68P,1.39 kcal/mol
V90Y,-0.0528 kcal/mol
I55E,0.499 kcal/mol
F35N,0.89 kcal/mol
G60T,0.108 kcal/mol
Q79P,0.0852 kcal/mol
T37S,0.428 kcal/mol

# Study 4 — target: CREB3L1, bZIP domain (human); technique: DHFR protein complementation; sample: yeast; reference: wild-type JUN-FOS pair; direction: higher = stronger binding
# Notes: single substitutions, most at no-binding floor
# Starting sequence: JUN, bZIP domain (human); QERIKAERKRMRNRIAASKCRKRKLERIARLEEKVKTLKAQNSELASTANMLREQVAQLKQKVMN; partner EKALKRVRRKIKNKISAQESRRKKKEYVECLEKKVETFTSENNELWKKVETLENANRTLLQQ
Substitution,binding fitness [natural log]
A40W,-1.52
R30W,-1.41
A46S,-1.38
N42W,-1.49
R30M,-1.39
S47T,-1.49

# A few entries again (study 1):
target,fold induction
"PhoP, residues 12 14 15 18 19 STHWV (Escherichia coli, UniProt P23836)",5.66
"PhoP, residues 12 14 15 18 19 QYCSL (Escherichia coli, UniProt P23836)",1.14
"PhoP, residues 12 14 15 18 19 SHWTV (Escherichia coli, UniProt P23836)",0.973
